# Experimental data pooled from the literature.
# DRD3: D(3) dopamine receptor (DRD3, Homo sapiens, UniProt P35462)
# Chain of UniProt P35462 (whole entry, looked up): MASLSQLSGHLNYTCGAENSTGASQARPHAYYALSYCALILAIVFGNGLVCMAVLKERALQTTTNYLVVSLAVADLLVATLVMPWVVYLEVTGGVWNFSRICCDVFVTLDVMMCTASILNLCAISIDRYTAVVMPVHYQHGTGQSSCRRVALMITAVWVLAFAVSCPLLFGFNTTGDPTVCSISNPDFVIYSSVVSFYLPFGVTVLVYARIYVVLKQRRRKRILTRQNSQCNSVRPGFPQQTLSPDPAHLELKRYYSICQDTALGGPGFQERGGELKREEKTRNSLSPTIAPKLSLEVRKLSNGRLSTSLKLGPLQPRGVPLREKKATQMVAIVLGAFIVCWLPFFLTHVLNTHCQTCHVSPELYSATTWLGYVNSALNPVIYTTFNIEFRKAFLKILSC
# Ugcg: Ceramide glucosyltransferase (Ugcg, Mus musculus, UniProt O88693)
# Chain of UniProt O88693 (whole entry, looked up): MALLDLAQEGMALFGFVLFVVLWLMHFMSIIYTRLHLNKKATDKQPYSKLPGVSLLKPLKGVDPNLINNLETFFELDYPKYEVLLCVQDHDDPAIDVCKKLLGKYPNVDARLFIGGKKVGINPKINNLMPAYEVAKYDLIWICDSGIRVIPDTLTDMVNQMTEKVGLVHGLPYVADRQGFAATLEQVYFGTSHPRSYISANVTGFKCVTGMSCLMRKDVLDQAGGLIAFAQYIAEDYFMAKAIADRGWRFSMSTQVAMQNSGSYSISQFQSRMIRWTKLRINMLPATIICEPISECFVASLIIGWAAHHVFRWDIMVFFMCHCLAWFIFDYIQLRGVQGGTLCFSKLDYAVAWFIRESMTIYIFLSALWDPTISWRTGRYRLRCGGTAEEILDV
# Chain of UniProt P00761 (whole entry, looked up): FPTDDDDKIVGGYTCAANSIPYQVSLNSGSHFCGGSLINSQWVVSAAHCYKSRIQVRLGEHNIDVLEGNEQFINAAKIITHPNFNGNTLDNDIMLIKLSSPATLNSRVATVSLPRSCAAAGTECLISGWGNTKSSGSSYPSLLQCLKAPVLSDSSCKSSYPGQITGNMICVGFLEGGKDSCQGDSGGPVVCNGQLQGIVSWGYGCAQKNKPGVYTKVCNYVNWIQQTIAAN
# Chain of UniProt Q15418 (whole entry, looked up): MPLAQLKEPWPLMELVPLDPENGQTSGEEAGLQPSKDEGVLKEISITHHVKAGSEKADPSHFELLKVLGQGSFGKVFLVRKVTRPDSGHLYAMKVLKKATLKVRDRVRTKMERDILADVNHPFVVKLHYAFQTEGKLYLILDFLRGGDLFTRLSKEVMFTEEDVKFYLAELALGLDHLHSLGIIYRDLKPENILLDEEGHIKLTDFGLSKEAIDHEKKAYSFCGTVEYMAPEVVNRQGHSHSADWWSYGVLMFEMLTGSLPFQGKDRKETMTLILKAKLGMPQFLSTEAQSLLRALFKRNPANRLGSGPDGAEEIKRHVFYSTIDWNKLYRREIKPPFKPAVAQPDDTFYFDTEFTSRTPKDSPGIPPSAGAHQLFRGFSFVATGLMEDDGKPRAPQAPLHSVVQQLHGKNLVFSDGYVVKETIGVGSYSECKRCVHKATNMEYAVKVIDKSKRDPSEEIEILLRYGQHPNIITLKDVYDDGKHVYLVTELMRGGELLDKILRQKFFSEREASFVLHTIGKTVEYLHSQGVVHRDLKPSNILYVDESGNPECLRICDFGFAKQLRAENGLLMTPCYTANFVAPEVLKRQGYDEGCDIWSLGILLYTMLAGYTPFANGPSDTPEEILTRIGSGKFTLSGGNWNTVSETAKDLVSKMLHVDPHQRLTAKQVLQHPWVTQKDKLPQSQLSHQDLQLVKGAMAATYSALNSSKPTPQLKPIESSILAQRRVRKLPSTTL
# Chain of UniProt P51617 (whole entry, looked up): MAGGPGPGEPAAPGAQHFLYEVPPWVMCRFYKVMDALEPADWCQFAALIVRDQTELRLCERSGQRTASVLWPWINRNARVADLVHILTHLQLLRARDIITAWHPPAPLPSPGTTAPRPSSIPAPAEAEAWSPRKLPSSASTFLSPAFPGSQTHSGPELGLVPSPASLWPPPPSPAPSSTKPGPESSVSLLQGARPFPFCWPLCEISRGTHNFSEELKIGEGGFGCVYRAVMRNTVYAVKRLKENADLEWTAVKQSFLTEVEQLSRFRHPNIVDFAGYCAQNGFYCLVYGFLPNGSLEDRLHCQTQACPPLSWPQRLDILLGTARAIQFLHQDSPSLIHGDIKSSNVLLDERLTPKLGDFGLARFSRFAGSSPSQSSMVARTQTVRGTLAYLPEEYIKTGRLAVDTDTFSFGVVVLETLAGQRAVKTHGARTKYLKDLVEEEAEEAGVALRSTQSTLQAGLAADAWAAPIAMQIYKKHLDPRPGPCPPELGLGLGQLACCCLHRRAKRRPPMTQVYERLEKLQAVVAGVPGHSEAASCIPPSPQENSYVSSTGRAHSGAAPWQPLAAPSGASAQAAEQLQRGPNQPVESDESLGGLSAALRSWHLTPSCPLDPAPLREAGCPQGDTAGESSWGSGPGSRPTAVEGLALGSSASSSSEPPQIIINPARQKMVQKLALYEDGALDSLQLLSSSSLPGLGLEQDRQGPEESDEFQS
Structure (SMILES),tested on,test,test system,setting,scale,measurement,result
CNC(=O)c1ccc(C2CCCCC2)cc1,,hepatocyte stability,cryopreserved mouse hepatocytes,1 µM,,hepatic clearance,77 mL/min/kg
c1ccc(OC[C@H]2CN(CCN3CCc4ccccc43)CCO2)nc1,DRD3,"ligand displacement, radioligand",,,,Ki,> 10000 nM
CCCCCCOCCCCCN1C[C@H](O)[C@@H](O)[C@H](O)[C@H]1CO,Ugcg,"enzyme activity, inhibitor, fluorescence",,,,IC50,1000 nM
COC1CN([C@H]2CC[C@H]([C@@]3(C)Oc4c(Cl)cc(C(=O)NCc5c(SC)cc(C)[nH]c5=O)c(C)c4O3)CC2)C1,,"RNA-seq, refers to: CYSTM1","human, whole blood","dose not given, 24 h",relative to: pretreatment baseline,log2 fold change,2.99
COCC1CN(C2CCN(c3cc(OC)c(Nc4ncc(Br)c(Nc5ccc6c(c5P(C)(C)=O)OCCO6)n4)cc3C)CC2)C1,"EGFR (Homo sapiens, UniProt P00533, L858R/T790M)","enzyme activity, inhibitor, TR-FRET",,,,IC50,0.35 nM
OCCNCc1ccc(-c2cc(Cl)cc(Cl)c2)o1,DRD3,"ligand displacement, radioligand",,,,Ki,236 nM
Nc1ncc(-c2cc(-c3cnn(CC(F)(F)F)c3)ncc2F)nc1C(=O)NC1CNCC(F)C1 (stereo not shown),DYRK1A,KINOMEscan,,1 µM,relative to: DMSO control,remaining binding,92%
N#CCNC(=O)c1ccc([C@H]2[C@@H](F)[C@@H](F)C[C@@H](F)[C@H]2F)cc1,,liver microsome stability,mouse liver microsomes,1 µM,,hepatic clearance,14 mL/min/kg
Cc1nn(-c2cccc(N)c2)c(=O)c2cnc(Nc3ccc(N4CCNCC4)cc3)nc12,"RPS6KA1 (Homo sapiens, UniProt Q15418)","enzyme activity, inhibitor",,,,IC50,> 10000 nM
C[C@H](OCCCCCN1C[C@H](O)[C@@H](O)[C@H](O)[C@H]1CO)c1ccc(-c2ccccc2)cc1,Ugcg,"enzyme activity, inhibitor, fluorescence",,,,IC50,70 nM
OB(O)c1cnn(-c2cccc(Cl)c2)c1,"Trypsin (Sus scrofa, UniProt P00761)","enzyme activity, inhibitor, absorbance",,,,Ki,138000 nM
OC[C@H]1N[C@H](CCCCOCC23CC4CC(CC(C4)C2)C3)[C@H](O)[C@@H](O)[C@@H]1O,Ugcg,"enzyme activity, inhibitor, fluorescence",,,,IC50,50000 nM
CCn1nc(Cl)c2c1-c1cnc(N)c(c1)O[C@H](C)c1cc(F)ccc1-c1nn(C)cc1C2,"IRAK1 (Homo sapiens, UniProt P51617)","enzyme activity, inhibitor, radiometric",,,,IC50,1020 nM

# Excerpt of the above:
Structure (SMILES),tested on,test,test system,setting,scale,measurement,result
c1ccc(OC[C@H]2CN(CCN3CCc4ccccc43)CCO2)nc1,DRD3,"ligand displacement, radioligand",,,,Ki,> 10000 nM
